Experimental data from different studies.
Each line is one published result; not all experiments were run side by side.

COc1ccc(C[C@H]2CO[C@H](c3ccc(OC)c(OC)c3)[C@H]2COC(=O)C(C)(C)C)cc1OC  IC50 (NF-κB; reporter gene, inhibitor; HEK293 NF-κB-luc; 4 h, added: TNFα 2 ng/mL): 2.2 µM
CC1=CC2(C)C(=C(C)C3C4CC(C)CC(C)C4C4Oc5ccc(cc5)CC5(O)NC(=O)C(=C(O)C2C43)C5Nc2ncnc3c2ncn3C2OC(CO)C(O)C2O)C1C (centres unmarked)  IC50 (NF-κB; reporter gene, inhibitor; MDA-MB-231 NF-κB luciferase reporter; 2 h, added: LPS 1 µg/mL): 15.5 µM
Cc1ccc(-c2nnc3ccc(N4CCN(C(=O)c5ccc(Br)o5)CC4)nn23)cc1  IC50 (rat muscarinic M2-M5 receptors; functional response): > 50 µM
CCC/C(=C\C1=C(C(F)(F)F)C(=O)c2ccccc2C1=O)C(=O)N(CC)CC  IC50 (NF-κB; reporter gene, inhibitor, luciferase reporter; concentration not given): 5.6 µM
OC(CCCN1CCN(c2ccccn2)CC1)c1ccc(F)cc1 (centres unmarked)  IC50 (mouse anti-AZN monoclonal antibody; antibody binding, competitor, indirect immunochromatographic; pork extract): 0.6 ng/g
CCC/C(=C\C1=C(OC)C(=O)c2ccccc2C1=O)C(=O)NOC  IC50 (NF-κB; reporter gene, inhibitor, luciferase reporter; concentration not given): 5.9 µM
CCCCC/C=C/C(=O)CCc1ccc(O)c(OC)c1  IC50 (mouse mAb 1-G12; antibody binding, indirect competitive ELISA; added: coating antigen 3-OVA): > 4 µg/mL
COc1cccc(-c2nnc3ccc(N4CCN(C(=O)c5ccc(Br)o5)CC4)nn23)c1  IC50 (rat muscarinic M2-M5 receptors; functional response): > 50 µM
COc1ccc(C[C@H]2CO[C@H](c3ccc(OC)c(OC)c3)[C@H]2COC(=O)C2CCCCCC2)cc1OC  IC50 (NF-κB; reporter gene, inhibitor; HEK293 NF-κB-luc; 4 h, added: TNFα 2 ng/mL): 1.6 µM
OC1(C(F)(F)F)CCN(c2nc(Nc3ccnc(C(F)(F)F)c3)nc(-c3cccc(C(F)(F)F)n3)n2)C1 (centres unmarked)  IC50 (IDH2 R172S, human; 2-HG production, inhibitor; SW1353; 72 h): 4.51 µM
COc1cc(CCC(C)=O)ccc1O  IC50 (mouse mAb 1-G12; antibody binding, indirect competitive ELISA; added: coating antigen 4-OVA): 0.424 µg/mL
